Measurements from different studies.
Protocols differ between the studies behind these lines. Values joined by “and” are separate records of one study, mostly repeats; a detail may differ. Numbers after ± are the reported error.

With `CSCC[C@H](NC(=O)CNC(=O)[C@H](CCCCN)NC(=O)[C@H](CC(C)C)NC(=O)[C@@H]1CCCN1C(=O)[C@H](CO)NC(=O)[C@H](Cc1c[nH]cn1)NC(=O)[C@H](Cc1c[nH]c2ccccc12)NC(=O)[C@H](CCCNC(=N)N)NC(=O)[C@H](CC(C)C)NC(=O)[C@H](CCCNC(=N)N)NC(=O)[C@H](Cc1c[nH]c2ccccc12)NC(=O)[C@H](CS)NC(=O)CCCCCNC(=O)CN1CCN(CC(=O)O)CCN(CC(=O)O)CCN(CC(=O)O)CC1)C(=O)O` [copper-64 labelled] the tissue uptake was 53.2 %ID/g (ex vivo biodistribution; male C57BL/6J mice, kidney; intravenous, 1.85 MBq, 0.5 h, B16-F10 tumour-bearing).
`CC[C@H](C)[C@H](NC(=O)[C@H](Cc1ccc(O)cc1)NC(=O)[C@@H](NC(=O)[C@H](CCCNC(=N)N)NC(=O)[C@@H](N)CC(=O)O)C(C)C)C(=O)N[C@@H](Cc1c[nH]cn1)C(=O)N1CCC[C@H]1C(=O)O` — result for “elimination rate constant”: 0.03 min⁻¹ (Beagle dog, plasma; subcutaneous, 10 mg/kg/day, day 0).
`O=C(c1cc(Cc2n[nH]c(=O)c3ccccc23)ccc1F)N1CC(CNC2CC2)C1` has a Cmax of 2750 ng/mL (male Wistar Han rat; oral, 30 mg/kg, day 28).
The SUVmean of `CC[C@H](C)[C@H](NC(=O)[C@H](CCCCN)NC(=O)CNC(=O)[C@H](CC(C)C)NC(=O)[C@H](Cc1ccccc1)NC(=O)[C@H](CCCCN)NC(=O)[C@H](CO)NC(=O)[C@H](Cc1ccccc1)NC(=O)[C@H](Cc1c[nH]c2ccccc12)NC(=O)[C@H](CCC(N)=O)NC(=O)[C@@H](NC(=O)[C@H](Cc1ccccc1)NC(=O)CCCCCNC(=O)CN1CCN(CC(=O)O)CCN(CC(=O)O)CCN(CC(=O)O)CC1)C(C)C)C(=O)N[C@@H](CCC(=O)O)C(=O)N1CCC[C@H]1C(=O)N[C@@H](CC(=O)O)C(=O)N[C@H](C(=O)N[C@@H](CO)C(=O)N[C@@H](CCC(N)=O)C(=O)N[C@H](C(=O)N[C@@H](CCC(N)=O)C(=O)N[C@@H](CC(=O)O)C(=O)N1CCC[C@H]1C(=O)N[C@@H](CC(N)=O)C(=O)N[C@@H](CC(=O)O)C(=O)N[C@@H](CCC(N)=O)C(=O)N[C@@H](Cc1ccc(O)cc1)C(=O)N[C@@H](CCC(=O)O)C(=O)N1CCC[C@H]1C(=O)N[C@@H](Cc1ccccc1)C(=O)O)C(C)C)C(C)C` [copper-64 labelled] is reported as 2.27 SUV (dynamic PET; mouse, CT26 tumour, checkpoint inhibitor-treated, tumour; intravenous, 100 µCi/mouse, 70 s).
For `CSCC[C@H](N)C(=O)N[C@@H](C)C(=O)N[C@@H](CCCNC(=N)N)C(=O)N[C@@H](CCCNC(=N)N)C(=O)N[C@@H](CC(=O)O)C(=O)N[C@@H](CCCCN)C(=O)N[C@H](C(=O)N[C@@H](CC(=O)O)C(=O)N[C@@H](Cc1ccccc1)C(=O)N[C@@H](C)C(=O)N[C@@H](CCCNC(=N)N)C(=O)N[C@@H](CCCNC(=N)N)C(=O)N[C@@H](CCCNC(=N)N)C(=O)N[C@@H](CCCNC(=N)N)C(=O)NCCCCCC(=O)NCCCCC(NC(=O)CCCCCNC(=O)[C@H](CCCNC(=N)N)NC(=O)[C@H](CCCNC(=N)N)NC(=O)[C@H](CCCNC(=N)N)NC(=O)[C@H](CCCNC(=N)N)NC(=O)[C@H](C)NC(=O)[C@H](Cc1ccccc1)NC(=O)[C@H](CC(=O)O)NC(=O)[C@@H](NC(=O)[C@H](CCCCN)NC(=O)[C@H](CC(=O)O)NC(=O)[C@H](CCCNC(=N)N)NC(=O)[C@H](CCCNC(=N)N)NC(=O)[C@H](C)NC(=O)[C@@H](N)CCSC)[C@@H](C)O)C(=O)NCCCCC(NC(=O)C(CCCCNC(=O)CCCCCNC(=O)[C@H](CCCNC(=N)N)NC(=O)[C@H](CCCNC(=N)N)NC(=O)[C@H](CCCNC(=N)N)NC(=O)[C@H](CCCNC(=N)N)NC(=O)[C@H](C)NC(=O)[C@H](Cc1ccccc1)NC(=O)[C@H](CC(=O)O)NC(=O)[C@@H](NC(=O)[C@H](CCCCN)NC(=O)[C@H](CC(=O)O)NC(=O)[C@H](CCCNC(=N)N)NC(=O)[C@H](CCCNC(=N)N)NC(=O)[C@H](C)NC(=O)[C@@H](N)CCSC)[C@@H](C)O)NC(=O)CCCCCNC(=O)[C@H](CCCNC(=N)N)NC(=O)[C@H](CCCNC(=N)N)NC(=O)[C@H](CCCNC(=N)N)NC(=O)[C@H](CCCNC(=N)N)NC(=O)[C@H](C)NC(=O)[C@H](Cc1ccccc1)NC(=O)[C@H](CC(=O)O)NC(=O)[C@@H](NC(=O)[C@H](CCCCN)NC(=O)[C@H](CC(=O)O)NC(=O)[C@H](CCCNC(=N)N)NC(=O)[C@H](CCCNC(=N)N)NC(=O)[C@H](C)NC(=O)[C@@H](N)CCSC)[C@@H](C)O)C(N)=O)[C@@H](C)O` (stereo partly shown), “mean tissue distribution” read 0.93% (C57BL/6 mouse female, ovary; dose not given, 3 h; baseline: total).
Under “mean corpuscular volume”, `CC(C)[C@@H]1NC(=O)CNC(=O)[C@H](CC(N)=O)NC(=O)[C@H](CCCNC(=N)N)NC(=O)[C@H](Cc2ccc(O)cc2)NC(=O)[C@H](C(C)C)NC(=O)[C@@H](NC(=O)[C@@H](NC(=O)[C@H](CC(N)=O)NC(=O)[C@H](Cc2c[nH]c3ccccc23)NC(=O)[C@H](C)NC(=O)[C@H](Cc2ccccc2)NC(=O)CNC(=O)[C@H](CCCCN)NC(=O)[C@H](Cc2ccccc2)NC(=O)[C@H](Cc2ccccc2)NC(=O)[C@H](CCCCN)NC(=O)OCC2c3ccccc3-c3ccccc32)C(C)C)CSSC[C@@H](C(=O)N[C@@H](Cc2c[nH]cn2)C(=O)N[C@@H](CCCNC(=N)N)C(=O)N[C@@H](CCCNC(=N)N)C(=O)N[C@@H](C)C(=O)N[C@@H](CC(N)=O)C(N)=O)NC(=O)[C@H](C(C)C)NC(=O)[C@H](CCCNC(=N)N)NC1=O` is recorded as 40.7 ± 0.49 fL (ICR mice, blood; intraperitoneal, 10 mg/kg, day 5).
The kidney weight of `CC(C)[C@H](NC(=O)[C@@H](NC(=O)[C@H](CCCNC(=N)N)NC(=O)[C@H](CCCNC(=N)N)NC(=O)[C@H](CCCNC(=N)N)NC(=O)[C@H](CCC(N)=O)NC(=O)[C@H](CCCNC(=N)N)NC(=O)[C@H](CCCNC(=N)N)NC(=O)[C@H](CCCCN)NC(=O)[C@H](CCCCN)NC(=O)[C@H](CCCNC(=N)N)NC(=O)CN)[C@@H](C)O)C(=O)N[C@H](C(=O)N[C@@H](CO)C(=O)N1CCC[C@H]1C(=O)O)[C@@H](C)O` is reported as 0.216 ± 0.023 g (ICR mouse, female, right kidney; intranasal, 5 mg/kg daily, 4 weeks).
`Cc1ccc(OCCN(C)C)cc1C(=O)N[C@H](C)c1cc(-c2cnn(C(F)F)c2)nc2ccccc12` gave a viability of -0.769% and -6.73% (Vero E6; 250 µM).
For `CCN(CCCCOc1ccc(CCC(=O)N2CCC(Cc3ccccc3)CC2)cc1OC)Cc1ccccc1`, the excreted amount was 67.8 ± 39.7 ng (Sprague-Dawley rats, both sexes, faeces; oral gavage, 25 mg/kg, 0 to 6 h).
`COC(=O)[C@H](Cc1ccc(-c2ccccc2)cc1)NC(=O)c1ccc(-c2ccc(OP(=O)(O)O)cc2)cc1` — result for “critical micelle concentration”: 46.1 µM (PBS; pH 7.4, before phosphatase treatment).
`COc1cnc2cccc(N3CCc4c(cc(Cn5ccnc5)cc4-c4cn(C)nc4C(F)(F)F)C3=O)c2c1` has a body weight of 22.2 g and 23.6 g and 24 g and 25.2 g and 21.2 g (BALB/c nude mice, MV4-11 xenograft; intraperitoneal, 50 mg/kg, day 14).
`O=C1NC2(CC2)COc2ncc(F)cc2[C@H]2COCCN2c2ccn3ncc1c3n2` — result for “mean corpuscular volume”: 66.4 ± 3.3 fL (Sprague-Dawley rat, male, blood; oral, 10 mg/kg/day, 4 weeks, end of treatment, subacute toxicity).
The tissue uptake of `CC[C@H](C)[C@H](NC(=O)[C@H](CCCNC(=N)N)NC(=O)[C@H](CCCCN)NC(=O)[C@H](Cc1ccc(O)cc1)NC(=O)[C@H](CC(=O)O)NC(=O)[C@H](C)NC(=O)CNC(=O)CCOCCOCCOCCNC(=O)CN1CCN(CC(=O)O)CCN(CC(=O)O)CCN(CC(=O)O)CC1)C(=O)N[C@H](C(=O)N[C@H](C(=O)N[C@@H](CCCCN)C(=O)N[C@H](C(=O)N[C@@H](CC(N)=O)C(N)=O)C(C)C)C(C)C)[C@@H](C)O` [copper-64 labelled] is reported as 2.39 ± 0.415 %ID/g (ex vivo gamma counting; male C57BL/6J mouse, B16-F10 tumour, intestinal lymph node; intravenous, 1.85 MBq, 5 min).
`Cc1ccc(N2CCN(C)CC2)cc1C(=O)N[C@H](C)c1cc(-c2cnn(C)c2)nc2ccccc12` has a viability of 16.5% (African green monkey cells; 125 µM).
Under “acute toxic concentration”, `CC(C)C[C@H](NC(=O)[C@H](Cc1ccc(O)cc1)NC(=O)[C@H](C)NC(=O)[C@H](CC(N)=O)NC(=O)[C@H](CC(C)C)NC(=O)[C@H](C)NC(=O)[C@@H](NC(=O)[C@H](CCCCN)NC(=O)CNC(=O)[C@@H](NC(=O)[C@H](CC(N)=O)NC(=O)[C@H](CCCCN)NC(=O)CNC(=O)[C@@H](NC(=O)[C@H](Cc1c[nH]cn1)NC(=O)[C@H](C)NC(=O)[C@H](C)NC(=O)[C@H](CCCCN)NC(=O)[C@H](CCCCN)NC(=O)[C@H](Cc1ccccc1)NC(=O)[C@H](Cc1c[nH]c2ccccc12)NC(=O)[C@H](CCCCN)NC(=O)[C@H](CCCCN)NC(=O)[C@H](CS)NC(=O)CN)C(C)C)C(C)C)C(C)C)C(N)=O` is recorded as 5 µM (zebrafish embryos 4 hpf, E3 medium; 1 h).
For `N=C(N)NCCC[C@H](NC(=O)[C@H](CCCNC(=N)N)NC(=O)[C@H](CCCNC(=N)N)NC(=O)[C@H](CCC(N)=O)NC(=O)[C@H](CCCNC(=N)N)NC(=O)[C@H](CCCNC(=N)N)NC(=O)[C@H](CCCCN)NC(=O)[C@H](CCCCN)NC(=O)[C@H](CCCNC(=N)N)NC(=O)CNC(=O)[C@H](Cc1ccc(O)cc1)NC(=O)[C@H](Cc1ccccc1)NC(=O)[C@H](Cc1ccccc1)NC(=O)[C@H](Cc1ccccc1)NC(=O)Cc1ccc2ccccc2c1)C(=O)O`, the health score was 5 (C57BL/6 mice; intraperitoneal, 10 mg/kg, 24 h; direction not given).
`COc1ccccc1[C@@H](NS(=O)(=O)c1cc2ccc(O)nc2cc1Cl)C(=O)N(CC(=O)NCCn1cc(COCCOCCOCCOCC(=O)N[C@H](C(=O)N2C[C@H](O)C[C@H]2C(=O)NCc2ccc(-c3scnc3C)cc2)C(C)(C)C)nn1)Cc1cccs1` gave a logD of 2.3 (fast-gradient HPLC; pH 7.4).
`CC(C)C[C@H](NC(=O)[C@H](C)NC(=O)[C@H](Cc1cn(CCc2ccc(O)c(C=O)c2)nn1)NC(=O)[C@H](Cc1ccccc1)NC(=O)CCNC(=S)Nc1ccc2c(c1)C(=O)OC21c2ccc(O)cc2Oc2cc(O)ccc21)C(=O)N[C@@H](CC(=O)O)C(=O)N[C@@H](Cc1c[nH]c2ccccc12)C(=O)N[C@@H](CO)C(=O)N[C@@H](Cc1c[nH]c2ccccc12)C(=O)N[C@@H](CC(C)C)C(=O)N[C@@H](CCC(N)=O)C(=O)N[C@H](C(=O)N[C@@H](CCC(=O)O)C(N)=O)[C@@H](C)O` gave a hydrodynamic diameter of 316 ± 18.4 nm (dynamic light scattering; PBS/DMSO; 125 nM).
`COc1ccc(CNc2ccc3c(c2)S(=O)(=O)C=C3)cc1` gave a haemoglobin of 119 g/L (male C57BL/6 mice, blood; intraperitoneal, 20 mg/kg, day 8, group average).

A few entries again:
`COc1ccccc1[C@@H](NS(=O)(=O)c1cc2ccc(O)nc2cc1Cl)C(=O)N(CC(=O)NCCn1cc(COCCOCCOCCOCC(=O)N[C@H](C(=O)N2C[C@H](O)C[C@H]2C(=O)NCc2ccc(-c3scnc3C)cc2)C(C)(C)C)nn1)Cc1cccs1` gave a logD of 2.3 (fast-gradient HPLC; pH 7.4).
`Cc1ccc(OCCN(C)C)cc1C(=O)N[C@H](C)c1cc(-c2cnn(C(F)F)c2)nc2ccccc12` gave a viability of -0.769% and -6.73% (Vero E6; 250 µM).
